{"data": "Experimental data of several laboratories", "note": "Parts stem from different laboratories: compare values within a part only. Changes are numbered by the printed parent chain."}
{"data": "Set 1", "target": "CRIPT, C-terminal peptide", "technique": "DHFR complementation, deep sequencing", "matrix": "yeast", "notes": "single substitutions, model-inferred values", "reference": "wild type", "reading": "higher = weaker binding", "parent": "ERBIN, PDZ domain 1 (human); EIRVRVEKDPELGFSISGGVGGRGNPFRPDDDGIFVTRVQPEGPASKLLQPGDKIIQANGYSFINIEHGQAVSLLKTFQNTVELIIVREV; partner TKNYKQTSV"}
{"Change": "Q57E", "binding free energy change": "-0.0302 kcal/mol"}
{"Change": "P41N", "binding free energy change": "0.233 kcal/mol"}
{"Change": "P44W", "binding free energy change": "1.1 kcal/mol"}
{"Change": "N80D", "binding free energy change": "-0.0159 kcal/mol"}
{"Change": "I85G", "binding free energy change": "-0.0146 kcal/mol"}
{"Change": "E83D", "binding free energy change": "0.184 kcal/mol"}
{"Change": "N80L", "binding free energy change": "0.146 kcal/mol"}
{"Change": "G21A", "binding free energy change": "0.202 kcal/mol"}
{"data": "Set 2", "target": "POU, POU domain (Salpingoeca helianthica)", "technique": "Spec-seq", "form": "double-stranded DNA, one strand shown", "matrix": "in vitro", "tested at": "not given", "notes": "whole probe, mean of replicates", "reference": "not given", "reading": "lower = stronger binding", "shared flanks, not repeated": "GAGTCGTCTCGTCAGCAC … CCGTAGAGCACTCAGGTC", "Target sequence (chain)": "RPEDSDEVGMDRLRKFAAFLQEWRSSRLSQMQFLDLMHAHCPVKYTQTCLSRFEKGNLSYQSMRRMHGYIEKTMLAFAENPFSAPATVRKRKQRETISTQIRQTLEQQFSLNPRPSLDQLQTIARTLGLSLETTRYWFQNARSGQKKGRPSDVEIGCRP"}
{"Strand": "ATGCATGG", "relative binding energy": "1.37 ln ratio"}
{"Strand": "CAGATAAT", "relative binding energy": "0.381 ln ratio"}
{"Strand": "ATGCTTAC", "relative binding energy": "1.19 ln ratio"}
{"Strand": "ATGCGATA", "relative binding energy": "0.927 ln ratio"}
{"Strand": "ATGCCATG", "relative binding energy": "1.58 ln ratio"}
{"Strand": "ATGCTGTG", "relative binding energy": "1.04 ln ratio"}
{"Strand": "ACCCTAAT", "relative binding energy": "0.614 ln ratio"}
{"Strand": "ATATATAT", "relative binding energy": "0.493 ln ratio"}
{"data": "Other studies, line by line", "HCM1 DNA-binding domain": "Forkhead transcription factor HCM1, DNA-binding domain (HCM1, Saccharomyces cerevisiae, UniProt P25364, residues 41-213)", "P1": "viral docking peptide; KGVKRKLFAEDSS; partner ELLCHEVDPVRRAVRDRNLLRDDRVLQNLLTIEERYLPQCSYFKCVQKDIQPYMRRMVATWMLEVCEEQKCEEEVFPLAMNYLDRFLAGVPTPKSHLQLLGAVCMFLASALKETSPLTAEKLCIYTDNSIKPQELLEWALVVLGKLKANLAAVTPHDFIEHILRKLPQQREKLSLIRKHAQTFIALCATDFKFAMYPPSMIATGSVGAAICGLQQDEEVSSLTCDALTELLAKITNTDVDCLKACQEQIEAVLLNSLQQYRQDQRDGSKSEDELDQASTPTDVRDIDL", "sequence of UniProt P25364 (41-213, looked up)": "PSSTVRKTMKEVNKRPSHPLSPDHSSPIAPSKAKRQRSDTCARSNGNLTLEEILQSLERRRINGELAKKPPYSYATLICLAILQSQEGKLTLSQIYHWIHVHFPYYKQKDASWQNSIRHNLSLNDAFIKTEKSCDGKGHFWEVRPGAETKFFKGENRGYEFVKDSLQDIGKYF"}
{"Molecule": "GACAATA", "target": "HCM1 DNA-binding domain", "assay": "SELEX-seq", "test system": "double-stranded DNA, one strand shown, in vitro", "conditions": "not given, 7-bp core, flanks averaged", "how to read": "reference: best-binding core, lower = stronger binding", "quantity": "relative binding free energy", "value": "2.19 ddG/RT"}
{"Molecule": "P1 R5T", "target": "CCND2, cyclin fold, Cln2 fusion (human)", "assay": "yeast growth competition, sequencing", "test system": "yeast", "conditions": "weak parent motif", "how to read": "reference: not given, higher = stronger binding", "quantity": "normalised enrichment score", "value": -0.0499}
{"Molecule": "CAAAATA", "target": "HCM1 DNA-binding domain", "assay": "SELEX-seq", "test system": "double-stranded DNA, one strand shown, in vitro", "conditions": "not given, 7-bp core, flanks averaged", "how to read": "reference: best-binding core, lower = stronger binding", "quantity": "relative binding free energy", "value": "2.07 ddG/RT"}
{"note": "For quick reference, copied from above (other studies, line by line):"}
{"Molecule": "P1 R5T", "target": "CCND2, cyclin fold, Cln2 fusion (human)", "assay": "yeast growth competition, sequencing", "test system": "yeast", "conditions": "weak parent motif", "how to read": "reference: not given, higher = stronger binding", "quantity": "normalised enrichment score", "value": -0.0499}
{"Molecule": "CAAAATA", "target": "HCM1 DNA-binding domain", "assay": "SELEX-seq", "test system": "double-stranded DNA, one strand shown, in vitro", "conditions": "not given, 7-bp core, flanks averaged", "how to read": "reference: best-binding core, lower = stronger binding", "quantity": "relative binding free energy", "value": "2.07 ddG/RT"}
{"Molecule": "GACAATA", "target": "HCM1 DNA-binding domain", "assay": "SELEX-seq", "test system": "double-stranded DNA, one strand shown, in vitro", "conditions": "not given, 7-bp core, flanks averaged", "how to read": "reference: best-binding core, lower = stronger binding", "quantity": "relative binding free energy", "value": "2.19 ddG/RT"}
